Experimental data gathered from unrelated publications.
Compare with care: the assays were run in different laboratories. “And” joins repeats or separate records; there may be more than shown. ± marks the error that the study gave.
Trypanothione synthetase: Trypanothione synthetase (Trypanosoma brucei brucei, UniProt Q8IEX1)
Alpha-amylase: Alpha-amylase (Bos taurus, UniProt Q3MHH8)
FFAR4: Free fatty acid receptor 4 (FFAR4, Homo sapiens, UniProt Q5NUL3)
UniProt Q5NUL3, sequence (whole entry, looked up): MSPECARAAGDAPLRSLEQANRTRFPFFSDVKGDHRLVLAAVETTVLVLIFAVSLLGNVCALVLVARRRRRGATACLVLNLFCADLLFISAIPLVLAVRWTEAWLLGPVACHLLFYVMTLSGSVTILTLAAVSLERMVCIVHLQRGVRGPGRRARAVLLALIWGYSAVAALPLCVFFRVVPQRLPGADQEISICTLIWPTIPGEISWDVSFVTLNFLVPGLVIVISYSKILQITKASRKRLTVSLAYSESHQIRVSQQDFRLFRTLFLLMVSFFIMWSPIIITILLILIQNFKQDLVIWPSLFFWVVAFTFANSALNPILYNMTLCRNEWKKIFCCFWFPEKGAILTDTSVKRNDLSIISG
USP51: Ubiquitin carboxyl-terminal hydrolase 51 (USP51, Homo sapiens, UniProt Q70EK9)
UniProt O43497, sequence (whole entry, looked up): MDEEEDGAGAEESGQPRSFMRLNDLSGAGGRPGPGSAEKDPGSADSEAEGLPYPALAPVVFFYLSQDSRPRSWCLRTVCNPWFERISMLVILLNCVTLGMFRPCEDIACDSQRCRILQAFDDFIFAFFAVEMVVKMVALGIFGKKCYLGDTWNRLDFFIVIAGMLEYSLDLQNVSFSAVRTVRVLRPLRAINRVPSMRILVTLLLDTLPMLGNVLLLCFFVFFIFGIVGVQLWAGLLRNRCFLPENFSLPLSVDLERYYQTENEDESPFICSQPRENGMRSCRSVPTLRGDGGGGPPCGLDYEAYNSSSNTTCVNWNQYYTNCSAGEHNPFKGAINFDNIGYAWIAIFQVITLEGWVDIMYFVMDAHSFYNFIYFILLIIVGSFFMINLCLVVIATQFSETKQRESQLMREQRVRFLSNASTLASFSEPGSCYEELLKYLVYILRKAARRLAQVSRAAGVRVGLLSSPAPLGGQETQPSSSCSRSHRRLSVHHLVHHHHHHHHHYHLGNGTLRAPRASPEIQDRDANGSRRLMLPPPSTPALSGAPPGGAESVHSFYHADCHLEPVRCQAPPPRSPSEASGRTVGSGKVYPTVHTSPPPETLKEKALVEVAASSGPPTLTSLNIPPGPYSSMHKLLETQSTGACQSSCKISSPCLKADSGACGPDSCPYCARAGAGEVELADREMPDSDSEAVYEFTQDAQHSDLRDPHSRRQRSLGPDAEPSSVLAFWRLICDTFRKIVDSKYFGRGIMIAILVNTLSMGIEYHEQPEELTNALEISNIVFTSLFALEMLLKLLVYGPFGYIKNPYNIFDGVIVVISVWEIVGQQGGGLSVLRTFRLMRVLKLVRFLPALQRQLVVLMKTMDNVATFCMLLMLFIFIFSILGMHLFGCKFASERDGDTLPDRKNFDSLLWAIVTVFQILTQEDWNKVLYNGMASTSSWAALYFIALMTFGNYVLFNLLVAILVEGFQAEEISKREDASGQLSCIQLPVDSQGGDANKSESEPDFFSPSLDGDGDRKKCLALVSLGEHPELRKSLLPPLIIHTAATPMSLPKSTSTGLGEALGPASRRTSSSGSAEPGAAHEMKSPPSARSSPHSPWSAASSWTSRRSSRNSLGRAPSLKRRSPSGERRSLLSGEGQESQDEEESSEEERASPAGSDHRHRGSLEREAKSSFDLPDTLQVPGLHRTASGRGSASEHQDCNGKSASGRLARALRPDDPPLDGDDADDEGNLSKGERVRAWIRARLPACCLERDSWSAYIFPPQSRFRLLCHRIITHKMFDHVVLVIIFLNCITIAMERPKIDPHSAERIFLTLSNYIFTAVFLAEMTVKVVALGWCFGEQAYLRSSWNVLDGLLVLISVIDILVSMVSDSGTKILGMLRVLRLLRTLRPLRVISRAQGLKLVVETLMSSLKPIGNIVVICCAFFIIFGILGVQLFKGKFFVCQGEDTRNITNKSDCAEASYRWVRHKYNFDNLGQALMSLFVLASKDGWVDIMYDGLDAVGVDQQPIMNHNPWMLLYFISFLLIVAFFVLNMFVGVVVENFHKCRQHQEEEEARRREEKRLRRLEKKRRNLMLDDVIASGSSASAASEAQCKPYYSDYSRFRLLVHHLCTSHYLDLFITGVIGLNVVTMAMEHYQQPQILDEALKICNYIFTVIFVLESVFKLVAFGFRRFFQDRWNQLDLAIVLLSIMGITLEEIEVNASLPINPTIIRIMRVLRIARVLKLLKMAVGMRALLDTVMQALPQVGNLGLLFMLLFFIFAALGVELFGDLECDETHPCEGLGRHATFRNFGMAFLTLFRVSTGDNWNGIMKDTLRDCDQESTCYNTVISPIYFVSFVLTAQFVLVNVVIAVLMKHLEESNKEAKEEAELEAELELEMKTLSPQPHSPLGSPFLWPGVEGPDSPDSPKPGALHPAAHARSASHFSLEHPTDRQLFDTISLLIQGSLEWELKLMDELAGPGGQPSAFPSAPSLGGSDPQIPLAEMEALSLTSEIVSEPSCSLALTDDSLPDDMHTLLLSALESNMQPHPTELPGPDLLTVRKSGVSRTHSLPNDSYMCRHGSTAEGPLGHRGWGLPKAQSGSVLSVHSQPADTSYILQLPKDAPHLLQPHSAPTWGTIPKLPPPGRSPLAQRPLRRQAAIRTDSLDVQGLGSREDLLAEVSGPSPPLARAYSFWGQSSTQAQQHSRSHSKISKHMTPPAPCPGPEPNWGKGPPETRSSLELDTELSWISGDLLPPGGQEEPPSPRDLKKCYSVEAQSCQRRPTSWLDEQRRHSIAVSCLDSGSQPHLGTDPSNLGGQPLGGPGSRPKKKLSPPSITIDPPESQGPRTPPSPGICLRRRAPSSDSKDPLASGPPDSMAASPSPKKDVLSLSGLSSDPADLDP
UniProt Q70EK9, sequence (whole entry, looked up): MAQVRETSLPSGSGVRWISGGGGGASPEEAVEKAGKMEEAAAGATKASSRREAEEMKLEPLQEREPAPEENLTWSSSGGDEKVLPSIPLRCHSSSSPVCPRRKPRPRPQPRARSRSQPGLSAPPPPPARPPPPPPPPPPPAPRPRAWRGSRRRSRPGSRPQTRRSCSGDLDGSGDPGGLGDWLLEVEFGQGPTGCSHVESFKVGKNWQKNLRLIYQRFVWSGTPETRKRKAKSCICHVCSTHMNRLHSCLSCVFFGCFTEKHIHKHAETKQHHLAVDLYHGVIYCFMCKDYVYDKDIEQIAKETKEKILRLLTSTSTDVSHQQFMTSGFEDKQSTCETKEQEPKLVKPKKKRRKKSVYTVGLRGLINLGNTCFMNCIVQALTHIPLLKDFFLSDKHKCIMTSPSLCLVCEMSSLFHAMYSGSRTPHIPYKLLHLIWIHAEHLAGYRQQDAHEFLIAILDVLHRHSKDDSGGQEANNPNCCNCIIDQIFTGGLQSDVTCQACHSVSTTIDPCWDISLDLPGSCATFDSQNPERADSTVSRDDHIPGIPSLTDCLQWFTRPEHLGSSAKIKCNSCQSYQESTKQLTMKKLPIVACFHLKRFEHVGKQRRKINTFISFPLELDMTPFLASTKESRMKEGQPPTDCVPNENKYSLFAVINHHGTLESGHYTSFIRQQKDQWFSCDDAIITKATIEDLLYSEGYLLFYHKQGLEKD
UniProt Q96RR4, sequence (whole entry, looked up): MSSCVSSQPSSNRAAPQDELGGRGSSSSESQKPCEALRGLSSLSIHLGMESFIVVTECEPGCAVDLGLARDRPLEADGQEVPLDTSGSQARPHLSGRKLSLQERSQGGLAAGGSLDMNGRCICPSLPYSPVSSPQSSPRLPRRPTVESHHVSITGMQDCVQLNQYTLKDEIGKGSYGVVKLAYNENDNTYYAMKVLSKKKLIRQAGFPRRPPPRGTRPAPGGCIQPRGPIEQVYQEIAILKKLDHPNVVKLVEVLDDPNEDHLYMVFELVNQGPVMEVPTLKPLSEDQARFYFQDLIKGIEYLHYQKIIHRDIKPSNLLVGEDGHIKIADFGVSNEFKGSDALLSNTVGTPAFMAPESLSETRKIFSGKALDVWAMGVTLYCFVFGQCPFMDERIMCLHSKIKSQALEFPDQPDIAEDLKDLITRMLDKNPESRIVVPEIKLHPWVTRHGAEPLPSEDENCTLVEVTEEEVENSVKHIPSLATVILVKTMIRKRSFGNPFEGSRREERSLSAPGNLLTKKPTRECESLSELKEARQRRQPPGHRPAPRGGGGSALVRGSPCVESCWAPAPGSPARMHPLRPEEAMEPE
UniProt Q6W5P4, sequence (whole entry, looked up): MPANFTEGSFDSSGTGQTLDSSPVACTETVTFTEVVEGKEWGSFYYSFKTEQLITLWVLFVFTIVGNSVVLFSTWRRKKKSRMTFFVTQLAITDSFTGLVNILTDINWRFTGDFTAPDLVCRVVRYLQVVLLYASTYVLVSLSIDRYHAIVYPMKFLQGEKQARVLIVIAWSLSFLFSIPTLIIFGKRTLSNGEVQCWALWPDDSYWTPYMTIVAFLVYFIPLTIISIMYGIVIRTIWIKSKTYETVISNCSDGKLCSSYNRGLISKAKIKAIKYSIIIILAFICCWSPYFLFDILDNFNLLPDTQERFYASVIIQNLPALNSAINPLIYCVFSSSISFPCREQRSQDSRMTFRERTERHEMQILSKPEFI
UniProt P35367, sequence (whole entry, looked up): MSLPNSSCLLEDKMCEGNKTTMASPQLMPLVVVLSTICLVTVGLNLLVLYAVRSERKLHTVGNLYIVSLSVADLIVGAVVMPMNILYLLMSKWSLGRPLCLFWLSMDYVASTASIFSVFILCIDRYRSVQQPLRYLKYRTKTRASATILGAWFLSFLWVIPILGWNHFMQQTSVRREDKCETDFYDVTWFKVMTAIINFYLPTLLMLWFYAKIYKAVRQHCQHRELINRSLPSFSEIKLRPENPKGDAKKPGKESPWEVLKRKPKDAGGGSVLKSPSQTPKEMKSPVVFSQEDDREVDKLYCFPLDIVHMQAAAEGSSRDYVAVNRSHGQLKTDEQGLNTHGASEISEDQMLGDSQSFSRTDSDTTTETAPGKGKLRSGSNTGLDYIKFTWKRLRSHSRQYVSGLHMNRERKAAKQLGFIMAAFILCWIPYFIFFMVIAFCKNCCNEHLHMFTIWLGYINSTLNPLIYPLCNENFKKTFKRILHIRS

Structure (SMILES) = CC(C)(C)OC(=O)N1CCN(C(=O)CN2C(=O)Cc3c([nH]c4ccc(Br)cc34)-c3ccc(Cl)cc32)CC1; target = Trypanothione synthetase; test = enzyme activity, inhibitor, BIOMOL Green; setting = 30 µM; inhibition = 18.7 ± 1.9%
Structure (SMILES) = Cn1cncc1C1=CN(c2ncnc3[nH]cnc23)CCS1; target = Protein kinase C gamma type (PRKCG, Homo sapiens, UniProt P05129); test = enzyme activity; setting = 2 µM; inhibition = 92.8%
Structure (SMILES) = CC1=NN(c2ccccc2)C(=O)C1=NNc1ccc(S(N)(=O)=O)cc1; target = Alpha-amylase; test = enzyme activity, inhibitor, glucose oxidase; setting = 10 µg/mL, together with: dextrin; inhibition = 22.649 ± 0.000136%
Structure (SMILES) = O=C(NO)c1ccc(CN2CCCCc3ccccc32)c(F)c1; target = Histamine H1 receptor (HRH1, Homo sapiens, UniProt P35367); test = radioligand binding, radioligand displacement; setting = 10 µM; inhibition = 30.6%
Structure (SMILES) = CC(C)CCNc1cc(=O)[nH]c(=O)[nH]1; target = FFAR4; test = antagonist, β-arrestin recruitment; test system = CHO cells; setting = 10 µM, together with: 4 µM TUG-891; inhibition = 24 ± 8%
Structure (SMILES) = Cc1cc(-c2ccnc3[nH]cc(F)c23)cc(F)c1[C@@]1(O)[C@H](C)CN(C2CCS(=O)(=O)CC2)C[C@@H]1C; target = Rho-associated protein kinase 1 (ROCK1, Homo sapiens, UniProt Q13464); test = ATP probe binding, KiNativ; test system = HEK293T cell lysate; setting = 0.1 µM; inhibition = -6.6%
Structure (SMILES) = CC1=NN(c2ccccn2)C(=O)C1=NNc1ccc(S(N)(=O)=O)cc1; target = Alpha-amylase; test = enzyme activity, inhibitor, glucose oxidase; setting = 10 µg/mL, together with: dextrin; inhibition = 5.3743 ± 0.000287%
Structure (SMILES) = [2H]c1cc(C)c(NC(=O)c2cnc(Nc3cc(N4CCCCC4)nc(C)n3)s2)c(Cl)c1; target = Tyrosine-protein kinase Lck (LCK, Homo sapiens, UniProt P06239); setting = 0.01 µM; inhibition = > 90%
Structure (SMILES) = Cc1ccc(CNC(=O)[C@H](CCc2ccccc2)NC(=O)[C@H](CCc2ccccc2)NC(=O)[C@H](CCc2ccccc2)NC(=O)c2cnc(C)cn2)cc1; target = chymotrypsin; test = enzyme activity, inhibitor; setting = 100 µM; inhibition = -4%
Structure (SMILES) = Cc1nn(-c2nc3c(F)cc(F)cc3s2)c(O)c1C(c1cccc(C(F)(F)F)c1)c1c(C)nn(-c2nc3c(F)cc(F)cc3s2)c1O; target = Cyclic GMP-AMP synthase, catalytic domain; with DNA (CGAS, Homo sapiens, UniProt Q8N884); test = cGAS phase separation, inhibitor; setting = 3.125 µM; inhibition = 28.4%
Structure (SMILES) = CCc1oc2ccccc2c1C(=O)c1cc(Br)c(O)c(Br)c1; target = Solute carrier family 22 member 12 (SLC22A12, Homo sapiens, UniProt Q96S37, T217A); test = uric acid uptake; test system = HEK293T transfected with SLC22A12 T217A; setting = 0.5 µM, 10 min, 37 °C, mean, together with: [14C]urate 200 µM; inhibition = 67.9%
Structure (SMILES) = O=c1cc(-c2ccccc2)oc2cc(O)c(O)c(O)c12; target = USP51; test = inhibitor; setting = 1 µM, 1 h preincubation, together with: Ub-AMC 250 nM; inhibition = 75%
Structure (SMILES) = CC1=NN(c2cc(Cl)ccc2Cl)C(=O)C1=NNc1ccc(S(N)(=O)=O)cc1; target = Alpha-amylase; test = enzyme activity, inhibitor, glucose oxidase; setting = 200 µg/mL, together with: dextrin; inhibition = 18.6%
Structure (SMILES) = CSCCCNc1cc(=O)[nH]c(=O)[nH]1; target = FFAR4; test = antagonist, β-arrestin recruitment; test system = CHO cells; setting = 10 µM; inhibition = 25 ± 10%
Structure (SMILES) = COc1cc(C(=O)OCCCN2CCCN(CCCOC(=O)c3cc(OC)c(OC)c(OC)c3)CC2)cc(OC)c1OC; target = Equilibrative nucleoside transporter 2 (Homo sapiens, UniProt Q14542); test = nucleoside transport, inhibitor; test system = MDCKII cells expressing ENT2; setting = 316 µM, together with: adenosine; inhibition = 97.1% and 97.2%
Structure (SMILES) = Cn1cc(-c2cnc3ccc(NC(=O)Nc4ccc(F)c(Br)c4)cc3n2)cn1; target = Serine/threonine-protein kinase TBK1 (TBK1, Homo sapiens, UniProt Q9UHD2); test = kinase binding, KiNativ profiling, refers to: Lys1 peptide; test system = PANC-1 lysate; setting = 5 µM; inhibition = 4%
Structure (SMILES) = CN1CCN(CCNC(=O)CN2C(=O)Cc3c([nH]c4ccc(Br)cc34)-c3ccc(Cl)cc32)CC1; target = Trypanothione synthetase; test = enzyme activity, inhibitor, BIOMOL Green; setting = 30 µM; inhibition = 8.1 ± 6.2%
Structure (SMILES) = O=C(Nc1cccc2c(=O)cc(-c3nnn[nH]3)oc12)c1ccc(OCCCCc2ccccc2)cc1; target = Volume-regulated anion channel subunit LRRC8C, part LRRC8A IL1 chimera (LRRC8C, Homo sapiens, UniProt Q8TDW0, L136K); test = ion current, inhibitor, whole-cell patch clamp; test system = HCT LRRC8-/- cells; setting = 1 µM, -100 mV; inhibition = 66.1% and 51.7% and 67.5% and 71.7% and 70.7%
Structure (SMILES) = CC[C@@H]1[C@H](F)C(=O)N[C@@H]1COc1nccc2cc(C(N)=O)c(OC)cc12; target = Calcium/calmodulin-dependent protein kinase kinase 2 (CAMKK2, Homo sapiens, UniProt Q96RR4); test = ATP-site probe binding, ActivX profiling; test system = THP-1 cell lysate; setting = 0.04 mM, Lys1 site; inhibition = -13%
Structure (SMILES) = CCOC(=O)CN1C(=O)Cc2c([nH]c3ccc(Br)cc23)-c2ccc(Cl)cc21; target = Trypanothione synthetase; test = enzyme activity, inhibitor, BIOMOL Green; setting = 30 µM; inhibition = 29.8 ± 5.5%
Structure (SMILES) = O=c1cc(NCc2ccccc2)[nH]c(=O)[nH]1; target = FFAR4; test = antagonist, β-arrestin recruitment; test system = CHO cells; setting = 10 µM, together with: 4 µM TUG-891; inhibition = 37 ± 5%
Structure (SMILES) = CCCCC/C=C\C/C=C\CCCCCCCC(=O)O; target = USP51; test = inhibitor; setting = 1 µM, 1 h preincubation, together with: Ub-AMC 250 nM; inhibition = 100%
Structure (SMILES) = CC(C)c1noc2ncc(C(=O)c3ccccc3O)cc12; target = Voltage-dependent T-type calcium channel subunit alpha-1G (CACNA1G, Homo sapiens, UniProt O43497); test = ion current, inhibitor, whole-cell patch clamp; setting = 10 µM; inhibition = 9.06% and 4% and 17.8% and 3.22% and 12.5%
Structure (SMILES) = CC1=NN(c2cccc([N+](=O)[O-])c2)C(=O)C1=NNc1ccc(S(N)(=O)=O)cc1; target = Alpha-amylase; test = enzyme activity, inhibitor, glucose oxidase; setting = 500 µg/mL, together with: dextrin; inhibition = 12.9%
Structure (SMILES) = O=c1cc(NCCc2cccc(Cl)c2)[nH]c(=O)[nH]1; target = FFAR4; test = antagonist, β-arrestin recruitment; test system = CHO cells; setting = 10 µM, together with: 4 µM TUG-891; inhibition = 7 ± 5%
Structure (SMILES) = CC1=NCCNC(=O)C1=NNc1ccc(S(N)(=O)=O)cc1; target = Alpha-amylase; test = enzyme activity, inhibitor, glucose oxidase; setting = 100 µg/mL, together with: dextrin; inhibition = 13.1%
Structure (SMILES) = CCCCCCCCCNc1cc(=O)n(C)c(=O)[nH]1; target = FFAR4; test = antagonist, β-arrestin recruitment; test system = CHO cells; setting = 10 µM, together with: 4 µM TUG-891; inhibition = 17 ± 2%
Structure (SMILES) = CC1=NN(c2ccc(F)cc2)C(=O)C1=NNc1ccc(S(N)(=O)=O)cc1; target = Alpha-amylase; test = enzyme activity, inhibitor, glucose oxidase; setting = 100 µg/mL, together with: dextrin; inhibition = 11.1%
Structure (SMILES) = CC(C)CCCCCNc1cc(=O)[nH]c(=O)[nH]1; target = FFAR4; test = antagonist, β-arrestin recruitment; test system = CHO cells; setting = 10 µM, together with: 4 µM TUG-891; inhibition = 21 ± 5%
Structure (SMILES) = CC[C@@]1(CC(=O)OC)CCCN2CC[C@]3(O)C(=Nc4ccccc43)[C@@H]21; target = Neuropeptide S receptor, isoform B (NPSR1, Homo sapiens, UniProt Q6W5P4); test = beta-arrestin recruitment, antagonist, PathHunter chemiluminescence; setting = 20 µM, together with: agonist at EC80; inhibition = -17%
Structure (SMILES) = CCCCCCCCNc1cc(=O)[nH]c(=O)n1C; target = FFAR4; test = antagonist, β-arrestin recruitment; test system = CHO cells; setting = 10 µM; inhibition = 25 ± 9%
Structure (SMILES) = CC1=NN(c2ccc(C)cc2)C(=O)C1=NNc1ccc(S(N)(=O)=O)cc1; target = Alpha-amylase; test = enzyme activity, inhibitor, glucose oxidase; setting = 10 µg/mL, together with: dextrin; inhibition = 24.376 ± 0.000929%
Structure (SMILES) = COc1ccc(F)cc1C(=O)NCc1ccc(-c2nn([C@@H](C)C(F)(F)F)c(N)c2C(N)=O)cc1; target = STE20/SPS1-related proline-alanine-rich protein kinase (STK39, Homo sapiens, UniProt Q9UEW8); test = target engagement, competitive chemoproteomics; test system = human PBMCs; setting = 10 µM; inhibition = 9.6%
Structure (SMILES) = CCCCCCNc1[nH]c(=O)[nH]c(=O)c1Br; target = FFAR4; test = antagonist, β-arrestin recruitment; test system = CHO cells; setting = 10 µM; inhibition = 6 ± 4%
